Results gathered from unrelated publications.
Numbered parts are unrelated; each lists some results of a single study. Substitutions count along the parent as printed.

Series 1
Target: CREB3L1, bZIP domain (human)
Technique: DHFR protein complementation
Sample: yeast
Notes: single substitutions, most at no-binding floor
Baseline: wild-type JUN-FOS pair
Direction: higher = stronger binding
Starting sequence: JUN, bZIP domain (human); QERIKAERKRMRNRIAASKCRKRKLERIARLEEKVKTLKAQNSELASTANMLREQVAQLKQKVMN; partner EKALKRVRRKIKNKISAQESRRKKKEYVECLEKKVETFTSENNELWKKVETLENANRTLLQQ
`S43H` has a binding fitness of -1.17 natural log.
`L45R` gave a binding fitness of -1.52 natural log.
`A57V` gave a binding fitness of -1.45 natural log.
`L31V` gave a binding fitness of -1.46 natural log.
For `V56P`, the binding fitness was -1.49 natural log.
The binding fitness of `T37R` is reported as -1.42 natural log.
`N42F` gave a binding fitness of -1.52 natural log.
For `A49E`, the binding fitness was -1.44 natural log.

Series 2
Target: CEP164, C-terminal peptide (human)
Technique: DHFR complementation, deep sequencing
Sample: yeast
Notes: single substitutions, model-inferred values
Baseline: wild type
Direction: higher = weaker binding
Starting sequence: PDZK1, PDZ domain 2 (human); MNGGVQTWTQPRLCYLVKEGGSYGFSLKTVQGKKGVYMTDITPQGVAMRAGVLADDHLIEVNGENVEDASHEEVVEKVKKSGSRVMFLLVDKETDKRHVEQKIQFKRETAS; partner HNRVKVYRF
`Q31A`: “binding free energy change” -0.0663 kcal/mol.
For `K92S`, “binding free energy change” read -0.0157 kcal/mol.
For `L27K`, “binding free energy change” read 0.873 kcal/mol.
For `K106W`, “binding free energy change” read -0.248 kcal/mol.
`R49L`: “binding free energy change” 0.325 kcal/mol.
`K79C` — result for “binding free energy change”: 0.313 kcal/mol.
Under “binding free energy change”, `H98L` is recorded as -0.0415 kcal/mol.
For `D95N`, “binding free energy change” read -0.094 kcal/mol.

Mixed results
P1: PafA, mature enzyme, eGFP fusion (Elizabethkingia meningoseptica, UniProt Q9KJX5); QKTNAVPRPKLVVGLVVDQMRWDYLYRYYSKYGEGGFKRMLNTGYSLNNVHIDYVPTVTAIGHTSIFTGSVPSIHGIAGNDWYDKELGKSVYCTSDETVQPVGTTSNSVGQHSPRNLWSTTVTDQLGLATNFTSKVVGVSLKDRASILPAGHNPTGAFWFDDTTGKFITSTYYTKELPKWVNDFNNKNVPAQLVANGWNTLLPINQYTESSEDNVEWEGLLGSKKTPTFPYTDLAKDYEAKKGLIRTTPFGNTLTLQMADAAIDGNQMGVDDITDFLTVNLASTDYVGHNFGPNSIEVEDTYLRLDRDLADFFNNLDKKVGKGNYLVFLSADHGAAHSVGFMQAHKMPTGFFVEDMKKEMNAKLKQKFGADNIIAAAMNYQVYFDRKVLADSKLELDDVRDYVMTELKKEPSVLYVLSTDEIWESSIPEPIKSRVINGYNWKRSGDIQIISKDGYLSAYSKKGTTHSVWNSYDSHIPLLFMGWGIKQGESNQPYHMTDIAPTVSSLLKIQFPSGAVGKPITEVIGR
P2: viral docking peptide; KGVKRKLFAEDSS; partner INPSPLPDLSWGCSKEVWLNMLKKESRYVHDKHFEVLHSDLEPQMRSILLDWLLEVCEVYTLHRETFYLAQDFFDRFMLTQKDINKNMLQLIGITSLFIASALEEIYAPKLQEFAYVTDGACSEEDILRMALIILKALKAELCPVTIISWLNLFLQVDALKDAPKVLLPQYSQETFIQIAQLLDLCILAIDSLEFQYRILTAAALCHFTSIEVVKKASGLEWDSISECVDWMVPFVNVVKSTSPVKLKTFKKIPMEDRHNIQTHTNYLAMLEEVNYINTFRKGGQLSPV
`P1 G69A`: “oxyanion analog dissociation constant” 1.29 µM (vanadate, free oxyanion; microfluidic competitive inhibition; in vitro, cell-free expressed; not given, derived from inhibition constants, unchanged parent 676 nM; lower = stronger binding).
Under “normalised enrichment score”, `P2 K4C` is recorded as 6.43 (CCNE2, cyclin fold, Cln2 fusion (human); yeast growth competition, sequencing; yeast; strong parent motif; baseline: not given, higher = stronger binding).

A few entries again (series 1):
`N42F` gave a binding fitness of -1.52 natural log.
For `A49E`, the binding fitness was -1.44 natural log.
